Measured values collected from several papers.
Protocols differ between the studies behind these lines. “And” joins repeats or separate records; there may be more than shown. ± marks the error that the study gave.
Cell line: MDA-MB-231

SMILES | effect on | technique | time | notes | IC50
CC(=O)[C@@H]1CCCN1C(=O)[C@@H]1CCCN1C(=O)[C@H](Cc1ccccc1)NC(=O)[C@@H](NC(=O)[C@@H](NC(=O)[C@@H](NC(=O)[C@@H]1CCCN1C(=O)[C@H](C)NC(=O)OC(C)(C)C)C(C)C)C(C)C)C(C)C | cell growth or viability | SRB | – | – | 9.65 µM and 9.43 µM and 9.27 µM
CCCc1cc2cc(-n3nc(C)c4c3CC3(CCC3)CC4=O)cc(N3CCC(O)CC3)c2c(=O)[nH]1 | cell growth or viability | MTS | – | – | 6.7 µM
C#CCCCC[C@H](C)C[C@@H](C)C(=O)N(C)[C@@H](C)C(=O)N1CCC[C@H]1C(=O)N(C)[C@H](C(=O)N(C)[C@H](C(=O)OC)C(C)C)C(C)C | cell growth or viability | SRB | – | – | 3.11 µM and 2.58 µM and 2.96 µM
CCC1=C(C)C2=C(c3ccc(C(=O)NCCNC(=O)c4ccc(P(=NC(=O)c5ccccn5)(c5ccccc5)c5ccccc5)cc4)cc3)c3c(C)c(CC)c(C)n3[B-](F)(F)[N+]2=C1C | cell viability | MTT | 72 h | 0.1% DMSO | > 250 µM
CC[C@H](C)[C@@H]([C@@H](CC(=O)N1CCC[C@H]1[C@H](OC)[C@@H](C)C(=O)N[C@H](C)[C@@H](O)c1ccccc1)OC)N(C)C(=O)[C@@H](NC(=O)[C@H](C(C)C)N(C)C(=O)OCc1ccc(NC(=O)[C@H](CCCNC(N)=O)NC(=O)[C@@H](NC(=O)CCCc2cn(CC(=O)N[C@@H](CCCCNC(=O)CC[C@H](NC(=O)c3ccc(NCc4cnc5nc(N)[nH]c(=O)c5n4)cc3)C(=O)O)C(=O)NCCCC[C@H]3NC(=O)[C@H](CCCCN)NC(=O)[C@H](CCCNC(N)=O)NC(=O)[C@H](Cc4ccc(O)cc4)NC(=O)[C@@H](NC(=O)[C@H](Cc4ccc5ccccc5c4)NC(=O)[C@H](CCCNC(=N)N)NC(=O)[C@@H](N)CCCNC(=N)N)CSSC[C@@H](C(=O)N[C@@H](CCCNC(=N)N)C(N)=O)NC(=O)[C@H](CCCNC(N)=O)NC(=O)[C@H](CCCNC(=N)N)NC(=O)[C@H](Cc4ccc(O)cc4)NC(=O)[C@@H]4CCCN4C3=O)nn2)C(C)C)cc1)C(C)C | cell growth or viability | CCK-8 | – | – | 1.61 µM
Cc1ccc(C(C)C)cc1.O=C(N=P(c1ccccc1)(c1ccccc1)c1ccccc1)c1ccccn1.[Cl-].[Cl][Ru+] | cell viability | MTT | 72 h | 0.1% DMSO | 2.72 ± 0.11 µM
COC(=O)[C@@H](NC(=O)[C@@H](NC(=O)[C@@H](NC(=O)[C@@H]1CCCN1C(=O)[C@H](C)NC(=O)OC(C)(C)C)C(C)C)C(C)C)C(C)C | cell growth or viability | SRB | – | – | 32.8 µM and 31.6 µM and 33.1 µM
Cc1ccc(CC(=O)N2CCN(CC(OCc3ccc4ccccc4c3)c3ccc(Cl)cc3Cl)CC2)cc1 (centres unmarked) | cell growth or viability | MTT | 24 h | – | 25 µM
CCC1(c2ccc(NC(=O)CCC(=O)OC3OC4OC5(C)CCC6C(C)CCC(C3C)C46OO5)cc2)CCC(=O)NC1=O (mixture of isomers) | cell growth or viability | CCK-8 | – | – | > 50 µM
Cc1ccccc1/C=C/C(=O)N[C@@H]1C(=O)N[C@@H](Cc2ccccc2)C(=O)N[C@H](CC(C)C)C(=O)N[C@@H](C(C)C)C(=O)N[C@@H](C)C(=O)N[C@H](CCC(N)=O)C(=O)NCC(=O)N2CCC[C@H]2C(=O)N[C@@H](CCCNC(=N)N)C(=O)N[C@H](Cc2ccccc2)C(=O)O[C@H]1C | – | – | – | – | > 20 µM
CC1CCC2C(C)C(OC(=O)CCC(=O)N3CCN(CC(=O)Nc4ccc([N+](=O)[O-])c(C(F)(F)F)c4)CC3)OC3OC4(C)CCC1C32OO4 (centres unmarked) | cell growth or viability | CCK-8 | – | – | > 50 µM
O=C(Cc1ccc(Cl)cc1)N1CCN(CC(OCc2ccc3ccccc3c2)c2ccc(Cl)cc2Cl)CC1 (centres unmarked) | cell growth or viability | MTT | 24 h | – | 15.5 µM
CC(C)C12OC1C1OC13C1(C)CCC4=C(COC4=O)C1CC1OC13C2OC(=O)CCCOC1OC(CO)C(O)C(O)C1O (centres unmarked) | cell growth or viability | XTT | 47 h | – | 0.26 µM
Cc1ccccc1/C=C/C(=O)N[C@H]1COC(=O)[C@H](CC(=O)O)NC(=O)[C@H]([C@@H](O)C(=O)c2ccccc2N)NC(=O)[C@@H](Cc2ccccc2)NC(=O)[C@@H](NC(=O)[C@@H](Cc2ccccc2)NC(=O)CN)[C@@H](C)OC1=O | – | – | – | – | > 20 µM

Repeated from above:
SMILES | effect on | technique | time | notes | IC50
Cc1ccc(CC(=O)N2CCN(CC(OCc3ccc4ccccc4c3)c3ccc(Cl)cc3Cl)CC2)cc1 (centres unmarked) | cell growth or viability | MTT | 24 h | – | 25 µM
CCCc1cc2cc(-n3nc(C)c4c3CC3(CCC3)CC4=O)cc(N3CCC(O)CC3)c2c(=O)[nH]1 | cell growth or viability | MTS | – | – | 6.7 µM
